Results from different studies.
Every numbered part comes from another study and shows a few of its results, in no order.

Sample 1
Target: RNA binding protein fox-1 homolog 2, RRM domain, GST-SBP tag (RBFOX2, Homo sapiens, UniProt O43251-10, residues 100-194)
Technique: RNA Bind-n-Seq
Molecule type: RNA
Sample: in vitro
Concentration: 365 nM
Notes: natural RNA segment, single round, ends assumed
Reference: no-protein control
Reading: higher = stronger binding
Constant ends, left off below: GGGAGUUCUACAGUCCGACGAUC … UGGAAUUCUCGGGUGCCAA
Target sequence (chain): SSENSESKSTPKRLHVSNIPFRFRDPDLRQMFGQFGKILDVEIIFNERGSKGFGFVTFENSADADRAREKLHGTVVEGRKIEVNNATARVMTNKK
Strand	RBNS enrichment (R)
UUUUGUCUUUAAUAGAGGAGGCAGAGGGAUCUGUGACUUAAAAGCCAGUCUGAUCUACAUUGUGAGUUCCAAGACAGCCAAAACUACAUAAUGAGACCCUGUCUCAAAAA	0.276
AGCAAAACAAAAACAAAAACAAAAACCCUACCAGAAACCAGAAGUAGAGAGAUUUACCAUAUAACUUAUGGACUUUGAAAUGUCUGUCCUUUUAAGGCAGCAGGGAGGCC	0.613
CUUUUUUUCCAUGGUGAAGAGCAAUAAACUCUGGAUGUUUGUGCGCGUGUGUGGACAGUCUUAUCUUCCAGCAUGAUAGGAUUUGACCAUUUUGGUGUAAACAUUUGUGU	0.871
UGAGUCUUUGAGACUAAAUUCAAUCACCACCAGGUAUCAAAUCAACUUUUAUGCAGCAAAUAUAUGAUUCUAGUGUCUGACUUUUGUUAAAUUCAGUAAUGCAGUUUUUA	0.788
UCAUGAAAAUGGAGCCAGAGAGCCUGGACAUCAGGGACUUUUGCCCACAGCACAUGACACCGACAGCUGCCCAGCCUGUUCACAUGCUGGGGACCAGCACAGCACCUGAA	0.517
GUGGCAGUUGUUGCCUGAGCACCAAGUAACCCAAGCCACCUAUGUGACAACUUCUGGGCCCAGGAGUAAUUUCUCAGCAUUGAGGGUAAAAUAGGAUGGAGUGCUCUGUU	0.528
CUGUGAGUUGGGAAUUCCUGCGUGGCGACUUUCUCUGAGGCCCACAGAGAAUCAGGUAACAUUGCACAGCCUGCGUUCUCCUGCAGUGGUGGCACGCCUUGUGCUGACGA	0.477
CUCUUUAUCUGUGUUACUAGUGCCUGGUAUGUAGUAGGUGCUCAAUAAAUGCAUAUUGAAUAACUAAGUGAAUUUCUUUUGGCAACUUUUUAAGGACAUGUGCUCUUAGU	1.37

Sample 2
Target: Centromere-binding protein 1, full length, His-tagged (CBF1, Saccharomyces cerevisiae, UniProt P17106, residues 1-351)
Sequence of UniProt P17106 (whole entry, looked up): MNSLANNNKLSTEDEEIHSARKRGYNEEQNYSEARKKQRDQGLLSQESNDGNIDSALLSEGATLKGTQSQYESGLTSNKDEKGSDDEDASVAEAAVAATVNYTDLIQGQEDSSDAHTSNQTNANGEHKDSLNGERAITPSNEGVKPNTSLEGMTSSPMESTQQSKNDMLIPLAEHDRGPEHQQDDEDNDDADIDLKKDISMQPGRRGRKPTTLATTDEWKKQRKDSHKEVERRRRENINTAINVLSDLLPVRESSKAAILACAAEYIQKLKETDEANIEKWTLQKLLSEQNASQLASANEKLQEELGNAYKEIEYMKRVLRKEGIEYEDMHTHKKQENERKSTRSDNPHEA
Technique: competition protein-binding microarray
Molecule type: double-stranded DNA, one strand shown
Sample: in vitro
Concentration: 2 µM
Notes: whole 60-bp probe, lowest competitor level
Added: Pho4 competitor, 0.05 µM
Reading: higher = stronger binding
Constant ends, left off below: … GTCTTGATTCGCTTGACGCTGCTG
Strand	fluorescence intensity [a.u.]
ATATTTTTCCCGTCCTGCGTGCTGTCCCAATACAAT	139
CGGGGTTAAGTTTGTAGTGTGGGTGGCTTGCAGCAG	73.5
CTGTAGAAGCTAGTACTTGTGATGAACCATTGGCAG	84.6
CGTCCTAGTGATTTTCACGTGGACTCCATGAGGAAG	679
TAAAAGAGGTTCTCACTCGTGAATACACCATCAACT	80.6
ACCAGCACCACCAACCACCTGAACCCCAACCATATT	78.9
CGTCCTAGTGATTGTCCAGTGGGTGCCATGAGGAAG	79.9
AACTCTCCACCCTTGCACATGTCTTCAGATTCGTCC	118
TGCGCAACAACTTGTACGGTGGGTGTATGTCTAGAA	62.7
GTCTTGTCTCATTGAAACGTGGGTGTCCCCACTTCA	102
TGCGCAACAACTTTTCACGTGAGCTTATGTCTAGAA	1280
CGGGGTTAAGTTTGACGAGTGGGTGGCTTGCAGCAG	64.1
CTAACGAAGGTTTGTCACTGGACTTACAAGCCAAGT	75.8
GGACGCGTAGAGGCGCACGTGTCCCGGCCCGGAGCC	1020
CTTTCCCGATCTTGCTCTGTGGGTGTAGCACATTTG	74.9
CATACCCAACCTTGAAACGTGGGTGAAGATATTTGT	94.7
CTTTCCCGATCTTGTCACCCAACTTTAGCACATTTG	66.3
CACTTCCTAACCCATCACGGGATACCGAATTGGGTA	714

Sample 3
Target: Ras GTPase-activating protein-binding protein 1, RRM domain (G3BP1, Homo sapiens, UniProt Q13283)
Sequence of UniProt Q13283 (whole entry, looked up): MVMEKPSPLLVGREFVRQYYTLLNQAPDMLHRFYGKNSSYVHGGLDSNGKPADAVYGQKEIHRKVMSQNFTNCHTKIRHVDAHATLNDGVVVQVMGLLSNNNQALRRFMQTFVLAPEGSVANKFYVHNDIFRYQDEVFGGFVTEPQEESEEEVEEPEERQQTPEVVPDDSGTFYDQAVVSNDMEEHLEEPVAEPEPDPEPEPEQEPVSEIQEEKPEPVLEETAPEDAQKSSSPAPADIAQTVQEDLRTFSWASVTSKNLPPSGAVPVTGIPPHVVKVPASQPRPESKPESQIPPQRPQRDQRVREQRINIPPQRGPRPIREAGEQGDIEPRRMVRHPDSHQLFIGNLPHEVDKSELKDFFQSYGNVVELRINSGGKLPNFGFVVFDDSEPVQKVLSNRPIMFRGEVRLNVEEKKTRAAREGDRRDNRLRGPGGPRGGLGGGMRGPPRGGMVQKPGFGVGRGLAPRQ
Technique: RNA Bind-n-Seq
Molecule type: RNA
Sample: in vitro
Concentration: 1 µM
Notes: whole 134-nt RNA, ends assumed
Added: 150 mM KCl
Reference: input library
Reading: higher = stronger binding
Constant ends, left off below: GGGAGUUCUACAGUCCGACGAUC … UGGAAUUCUCGGGUGUCAAGG
Strand	log2 enrichment
UGGCCCUGGUGGCAUGGGGGGAGGAAGAGGUGGCCUCAUGGAUCGUGGUGGUCCCGGUGGAAUGUUCAGAGGUGGCCGUGGUGGAGACAG	1.08
UCAAGUCCUGUGCUACACAUCGUAUGUACCGAAUCGGGGAGGGGUGGGGUGGGGAAAGUAUUAUGUUACGCCGUUCGGAUCUGCACUUCC	1.35
AAGUCCUGUGCUACACAUCGUAUGUACCGAAUCGGGGAAAAAGGGGAGGGGUGGGGAAAGUAUUAUGUUACGCCGUUCGGAUCUGCACUU	0.905
ACCAUGCAGGUGGGCAUCUUUGGGAAGUGGGGCAAGGGGGGGAGAGGGAGGGGGGUAACACUUUGGGAACAGGUGGUCCCAGGUCGUUUC	1.08
GUCCUGUGCUACACAUCGUAUGUACCGAAUCGGGAAAAAAAGGGUUUUUUUGGGAGGGAAAGUAUUAUGUUACGCCGUUCGGAUCUGCAC	0.292
CACAGACAACACGCACCCACACAGACACAGAGGGAAGGGGUUGGGAUGGGGACAGGGAGCACAGCAGGGCGGGGUAGGACCCCAGCCCCU	-0.0678
ACCAUGCAGGUGGGCAUCUUUGGGAAGUGGGGCAAGGGGGGGAUAGGGAGGGGGGUAACACUUUGGGAACAGGUGGUCCCAGGUCUUUUC	0.875
UAACUUUAGAGGAGGAUCUGAUGGAUAUGGCAGUGCACGUGGAUUUGGGGAUGGCUAUAAUGGGUAUGGAGGAGGACCUGGAGGUGGCAA	-0.627
UCAAGUCCUGUGCUACACAUCGUAUGUACCGAAUCGGAAAGGUUUGGAAAAAGGAAAGUAUUAUGUUACGCCGUUCGGAUCUGCACUUCC	-0.136

Sample 4
Target: RING finger protein unkempt homolog, zinc fingers 1-6, GST-SBP tag (UNK, Homo sapiens, UniProt Q9C0B0, residues 30-357)
Sequence of UniProt Q9C0B0 (30-357, looked up): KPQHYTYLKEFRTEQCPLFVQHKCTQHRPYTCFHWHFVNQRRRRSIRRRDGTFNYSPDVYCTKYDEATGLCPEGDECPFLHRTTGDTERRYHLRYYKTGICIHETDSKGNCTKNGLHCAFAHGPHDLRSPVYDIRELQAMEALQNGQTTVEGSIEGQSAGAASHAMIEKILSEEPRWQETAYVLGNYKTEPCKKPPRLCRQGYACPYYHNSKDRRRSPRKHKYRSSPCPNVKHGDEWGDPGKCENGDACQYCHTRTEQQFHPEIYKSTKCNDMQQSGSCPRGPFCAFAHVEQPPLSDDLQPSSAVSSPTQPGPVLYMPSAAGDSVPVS
Technique: RNA Bind-n-Seq
Molecule type: RNA
Sample: in vitro
Concentration: not given
Notes: RNA with constant flanks, human and mouse sites, ends assumed
Reference: input RNA pool
Reading: higher = stronger binding
Constant ends, left off below: GGGAGUUCUACAGUCCGACGAUC … CAACAGAGGAUUGAGCAUCA
Strand	bound/input enrichment [ratio]
UUCACGGAGGUGACCAUUGGCCCCUCUGUACUCUCUGCUGCCAGAGAUGACAUCAGCAAGCUCAGAAACACACUCCGCUUUCUCUUGGGAAAUUUGACCGGUUUUAACCCCGAGACAGAU	0.106
GAAGUUUUUACAAAGAUCAGACUGGUACUAGAAGUGCUCCAGAAACAGCUUCUAGAUUUGCCACUUGACACUGACCUGGAAAAUGAAAAAACAUCUACUGUCCCAUUGGCUGAGAUGCUU	0.158
CACGAGCAUUGGCUUCGUGAAUUGAGACGGCUCCGCCUGAGGAUAGCAGGAGUGGCGGGGUCGCCGCCGUCCGAAAGAUGAGCCGGAAAGCCUAAGUCGGAGACAGCCGCCUUGGGGCCC	0.167
CAGCCCUGACAGUGGGCGGGAAAACCGUGUCACGCUUCUAUAAACCUGACUCUAGAUUGGAAUUUUACCGAGAUCUUGGACUGCCACCAAAACAGAUACAUAAAAUCUUUCAUGUGACAG	0.326
GCAAUCCUACAGCUGUGGUCAUGGGAAAUCACCUACAGCAUGUUAAAGUCCUCUAGUCAUCAUCUCGUCACCUGAAAUGGAAGUCCUUUUUCCCUCACCCUCCACUUCUUUCCAAAGGAG	0.17
AAGCAUGUUAUUUAUUAGCAAUGAUAUGCAGUCAAUAAUAUUUGUCAUUUAAAAGUAAUGGUGUUGCUUUUUUUUUUUUUUUAAAUGGUUUUUCAAGACAGGGUUUCUCUGUAUAGCCCU	1.87
AACGAUAUCAAACCAGCAUUUGGCACCAACCAAGAGGAUUAUGCAAGUUACAUUAUGAAUGGGAUCAUCAAGUGGGGUGACCCCGUGACCCGAGUCCUAGAUGACGGAGAGCUGCUGGUC	0.146
GCUUCUCUUGCUUCUGAGGCAGUUGUGCGAGCCAGUUGGCUGCAGAGAGGGACUCUUAUCUCUUAAUGCUUUAAUACUCUCUGGCCUUGUUCCUCAUUGGCUCCCAGCUCUGCUUCUUUG	0.169
